{"data": "Results collected from several papers", "note": "Numbers after ± are the reported error."}
{"Molecule": "CN1C(=O)CC(=O)N(c2ccccc2)c2cc(Cl)ccc21", "assay": "hyperthermia-induced seizures", "test system": "Scn1a+/- mouse", "setting": "intraperitoneal, 5 mg/kg", "measurement": "seizure-free animals", "value": "92%"}
{"Molecule": "CCCCCn1cc(C(=O)c2ccc(OC)cc2)c2ccccc21", "test system": "male ND4 Swiss-Webster mice", "setting": "intraperitoneal, 5 and 10 mg/kg", "measurement": "onset of locomotor depression", "value": "≤ 20 min"}
{"Molecule": "opicalcin 1", "test system": "ICR mice, caffeine-epinephrine acute heart failure", "setting": "intravenous, 5 mg/kg, 30 min, added: caffeine 120 mg/kg and epinephrine 2 mg/kg", "measurement": "survival rate", "value": "> 80%"}
{"Molecule": "CCCCCn1cc(C(=O)Cc2ccccc2)c2ccccc21", "assay": "handling reactivity, functional observational battery", "test system": "ICR mice, male", "setting": "iv", "how to read": "reference: vehicle", "measurement": "lowest dose with significant effect", "value": "3 to 30 mg/kg"}
{"Molecule": "CCCCCn1nc(C(=O)NC(C(N)=O)C(C)(C)C)c2ccccc21 (stereo not shown)", "test system": "male ND4 Swiss-Webster mice", "setting": "intraperitoneal, 0.25 to 1 mg/kg", "measurement": "onset of locomotor depression", "value": "≤ 10 min"}
{"Molecule": "NC1(c2ccccc2Cl)CCC=CC1=O (stereo not shown)", "assay": "metabolite formation, metabolite", "test system": "pooled human liver microsomes", "setting": "30 min, 37 °C, added: (R)-norketamine substrate", "measurement": "Vmax", "value": "469 pmol/min/mg protein"}
{"Molecule": "CCC1(c2ccccc2)C(=O)NC(=O)NC1=O", "assay": "hind limb tonic extension", "test system": "albino mouse, MES-induced seizure", "setting": "ip, 0.5 h", "measurement": "minimal effective dose", "value": "30 mg/kg"}
{"Molecule": "NC(=O)C[S+]([O-])C(c1ccccc1)c1ccccc1 (racemic)", "test system": "mouse, C57BL/6, female, EAE", "setting": "dose not given, day 24, added: noxious paw pressure", "how to read": "reference: vehicle", "measurement": "ultrasonic vocalisation duration", "value": "inhibited"}
{"Molecule": "CCCCCn1cc(C(=O)c2ccc(CC)c3ccccc23)c2ccccc21", "test system": "male ND4 Swiss-Webster mice", "setting": "intraperitoneal, 1 to 10 mg/kg", "measurement": "onset of locomotor depression", "value": "≤ 30 min"}
{"Molecule": "CC(C)NCCc1c[nH]c2cccc(O)c12.O=C(O)/C=C/C(=O)O", "assay": "head twitch response", "test system": "C57BL/6J mice", "setting": "subcutaneous, 30 min session", "measurement": "ED50", "value": "2.9 to 3.3 mg/kg"}
{"Molecule": "CN[C@@](C)(C[18F])C(=O)O", "target or system": "DU-145 tumour model", "test system": "host not given, blood", "setting": "30 min, tumour-bearing", "measurement": "tracer uptake", "value": "1.6 %ID/g"}
{"Molecule": "CCCCCCC(C)(C)c1cc(O)c2c(c1)OC(C)(C)c1cnn(CC)c1-2", "test system": "rat, hypertonic saline masseter pain model", "setting": "ip, 1 and 3 mg/kg, 30 min pretreatment, added: hypertonic saline", "how to read": "reference: vehicle", "measurement": "paw shaking nociceptive behaviour", "value": "decreased"}
{"Molecule": "COc1ccc2cc3[n+](cc2c1OC)CCc1cc2c(cc1-3)OCO2", "test system": "rat, STZ-induced diabetic, liver", "setting": "oral, 12 mg/kg, day 28", "measurement": "SOD activity", "value": "7.41 ± 0.59 U/mg protein"}
{"Molecule": "O=C(NS(=O)(=O)c1ccc(NC[C@H]2COCCO2)c([N+](=O)[O-])c1)c1ccc(N2CCN(CC3=C(c4ccc(Cl)cc4)CC4(CCC4)CC3)CC2)cc1Oc1cnc2[nH]ccc2c1", "test system": "relapsed or refractory CLL/SLL patients", "setting": "dose not given, trial", "measurement": "objective response rate", "value": "63.6%"}
{"Molecule": "CCCCCc1cc(O)c2c(c1)OC(C)(C)[C@@H]1CCC(C)=C[C@@H]21", "assay": "drug discrimination", "test system": "C57BL/6J mice, male", "setting": "intraperitoneal, first dose-effect curve", "measurement": "ED50", "value": "1.9 mg/kg"}
{"Molecule": "CN1C(=O)CN=C(c2ccccc2)c2cc(Cl)ccc21", "assay": "elevated plus maze", "test system": "CD-1 mice", "setting": "i.p., 1 mg/kg, 30 min before test", "how to read": "reference: vehicle", "measurement": "open arm time and entries", "value": "increased"}
{"Molecule": "CCC[C@@H](C(=O)c1ccccc1)N1CCCC1", "assay": "locomotor activity and stereotypy", "test system": "male Sprague-Dawley rat", "setting": "intravenous", "how to read": "reference: compound over R-α-PVP", "measurement": "potency ratio", "value": "≥ 30 fold"}
{"Molecule": "CNC(C)Cc1ccc2c(c1)OCO2 (racemic)", "assay": "visual analog scale, refers to: Loving", "test system": "human", "setting": "oral, 1.5 mg/kg, mean over session, unit not given", "how to read": "reference: pre-dose baseline", "measurement": "mood rating", "value": 28.6}
{"Molecule": "CCCCCn1cc(C(=O)c2ccc(OC)c3ccccc23)c2ccccc21", "assay": "handling reactivity, functional observational battery", "test system": "ICR mice, male", "setting": "iv", "how to read": "reference: vehicle", "measurement": "lowest dose with significant effect", "value": "1 mg/kg"}
{"Molecule": "COC(=O)[C@H]1[C@@H](OC(=O)c2ccccc2)C[C@@H]2CC[C@H]1N2C", "assay": "drug discrimination", "test system": "Swiss Webster mice", "setting": "ip, 0.3 to 20 mg/kg, trained 10 mg/kg vs saline", "measurement": "drug-lever responding maximum", "value": "> 80%"}
{"Molecule": "CCCCCn1cc(C(=O)c2ccc(CC)c3ccccc23)c2ccccc21", "assay": "handling reactivity, functional observational battery", "test system": "ICR mice, male", "setting": "iv", "how to read": "reference: vehicle", "measurement": "lowest dose with significant effect", "value": "0.3 to 3 mg/kg"}
{"Molecule": "COC(=O)[C@H]1[C@@H](OC(=O)c2ccccc2)C[C@@H]2CC[C@H]1N2C", "assay": "in vivo microdialysis", "test system": "rat, nucleus accumbens shell", "setting": "intraperitoneal, 10.0 mg/kg, 0 to 30 min after dosing, mean over place-conditioning session", "how to read": "reference: baseline", "measurement": "extracellular dopamine level", "value": "281%"}
{"note": "For quick reference, copied from above:"}
{"Molecule": "CN1C(=O)CN=C(c2ccccc2)c2cc(Cl)ccc21", "assay": "elevated plus maze", "test system": "CD-1 mice", "setting": "i.p., 1 mg/kg, 30 min before test", "how to read": "reference: vehicle", "measurement": "open arm time and entries", "value": "increased"}
{"Molecule": "CCC[C@@H](C(=O)c1ccccc1)N1CCCC1", "assay": "locomotor activity and stereotypy", "test system": "male Sprague-Dawley rat", "setting": "intravenous", "how to read": "reference: compound over R-α-PVP", "measurement": "potency ratio", "value": "≥ 30 fold"}
